Measurements pooled from the literature.
Lines come from different studies, so protocols differ. “And” joins repeats or separate records; there may be more than shown. Numbers after ± are the reported error.

| SMILES | assay | system | setting | how to read | endpoint | value |
| --- | --- | --- | --- | --- | --- | --- |
| CS(=O)(=O)c1cc(Cl)cc(-c2cc(Cl)c(Cl)cc2Cl)c1Cl | ultrafiltration | cow milk whey | 500 nM nominal in whole milk |  | final permeate concentration | 13.7 nM |
| N=C(N)NCCC[C@@H](NC(=O)[C@H](N)Cc1c[nH]c2ccccc12)C(=O)N[C@H](CCCCN)C(=O)N[C@H](Cc1c[nH]c2ccccc12)C(=O)N[C@H](CCCNC(=N)N)C(=O)N[C@H](CCCCN)C(=O)N[C@H](Cc1c[nH]c2ccccc12)C(=O)N[C@H](CCCNC(=N)N)C(=O)N[C@H](CCCCN)C(=O)N[C@H](Cc1c[nH]c2ccccc12)C(=O)N[C@H](CCCNC(=N)N)C(=O)N[C@H](CCCCN)C(N)=O |  | mouse, lung | intravenous, 20 mg/kg single dose, 7 days |  | organ index | 0.666 |
| CC[C@H](C)[C@H](NC(=O)[C@H](CCCCN)NC(=O)CNC(=O)[C@H](CC(C)C)NC(=O)[C@H](Cc1ccccc1)NC(=O)[C@H](CCCCN)NC(=O)[C@H](CO)NC(=O)[C@H](Cc1ccccc1)NC(=O)[C@H](Cc1c[nH]c2ccccc12)NC(=O)[C@H](CCC(N)=O)NC(=O)[C@@H](NC(=O)[C@H](Cc1ccccc1)NC(=O)CCCCCNC(=O)CN1CCN(CC(=O)O)CCN(CC(=O)O)CCN(CC(=O)O)CC1)C(C)C)C(=O)N[C@@H](CCC(=O)O)C(=O)N1CCC[C@H]1C(=O)N[C@H](CC(=O)O)C(=O)N[C@H](C(=O)N[C@@H](CO)C(=O)N[C@@H](CCC(N)=O)C(=O)N[C@H](C(=O)N[C@@H](CCC(N)=O)C(=O)N[C@@H](CC(=O)O)C(=O)N1CCC[C@H]1C(=O)N[C@@H](CC(N)=O)C(=O)N[C@@H](CC(=O)O)C(=O)N[C@@H](CCC(N)=O)C(=O)N[C@@H](Cc1ccc(O)cc1)C(=O)N[C@@H](CCC(=O)O)C(=O)N1CCC[C@H]1C(=O)N[C@@H](Cc1ccccc1)C(=O)O)C(C)C)C(C)C [copper-64 labelled] |  | female mice, EMT6 tumour-bearing, spleen | 2 h, uncleavable control tracer, checkpoint inhibitor-treated |  | tissue uptake | 1.83 ± 0.26 %ID/g |
| COc1cnc2cccc(N3CCc4c(cc(Cn5ccnc5)cc4-c4cn(C)nc4C(F)(F)F)C3=O)c2c1 |  | BALB/c nude mice, MV4-11 xenograft | intraperitoneal, 50 mg/kg, day 31 |  | body weight | 22.4 g and 21.5 g and 22.2 g and 23 g and 23.2 g |
| CC[C@H](C)[C@H](NC(=O)[C@H](C)NC(=O)[C@H](CCCCN)NC(=O)[C@H](CCCCN)NC(=O)[C@@H](N)CCCNC(=N)N)C(=O)N[C@@H](CCCCN)C(=O)N[C@@H](CC(C)C)C(=O)N[C@H](C(=O)N[C@@H](CCCCN)C(=O)N[C@@H](CCCCN)C(=O)N[C@@H](CC(C)C)C(=O)N[C@H](C(=O)N[C@@H](CCCCN)C(=O)N[C@@H](CCCCN)C(=O)N[C@@H](CC(C)C)C(=O)N[C@@H](CCCCN)C(=O)N[C@@H](CCCCN)C(=O)N[C@@H](C)C(=O)N[C@@H](CC(C)C)C(=O)N[C@@H](CCCCN)C(=O)O)C(C)C)C(C)C |  | human red blood cells | 64 mg/L, 1 h, mean of replicates |  | hemolysis | 8.08% |
| C#Cc1c(F)ccc2cc(O)cc(-c3ncc4c(N5CC6CCC(C5)N6C(=O)OC(C)OC(=O)CCC5CCCC5)nc(OC[C@@]56CCCN5C[C@H](F)C6)nc4c3F)c12 (stereo partly drawn) | chemical stability | simulated intestinal fluid | 1 µM, 30 min |  | compound remaining | 36.3% |
| CSCC[C@H](N)C(=O)N[C@@H](C)C(=O)N[C@@H](Cc1c[nH]c2ccccc12)C(=O)N[C@@H](Cc1c[nH]cn1)C(=O)N[C@@H](CC(=O)O)C(=O)N[C@@H](CC(=O)O)C(=O)N[C@@H](CCC(=O)O)C(=O)N[C@@H](CCC(=O)O)C(=O)N[C@@H](Cc1ccccc1)C(=O)N[C@@H](C)C(=O)N[C@@H](CCCNC(=N)N)C(=O)N[C@@H](CCCNC(=N)N)C(=O)N[C@@H](CCCNC(=N)N)C(=O)N[C@@H](CCCNC(=N)N)C(=O)NCCCCCC(=O)NCCCCC(NC(=O)CCCCCNC(=O)[C@H](CCCNC(=N)N)NC(=O)[C@H](CCCNC(=N)N)NC(=O)[C@H](CCCNC(=N)N)NC(=O)[C@H](CCCNC(=N)N)NC(=O)[C@H](C)NC(=O)[C@H](Cc1ccccc1)NC(=O)[C@H](CCC(=O)O)NC(=O)[C@H](CCC(=O)O)NC(=O)[C@H](CC(=O)O)NC(=O)[C@H](CC(=O)O)NC(=O)[C@H](Cc1c[nH]cn1)NC(=O)[C@H](Cc1c[nH]c2ccccc12)NC(=O)[C@H](C)NC(=O)[C@@H](N)CCSC)C(=O)NCCCCC(NC(=O)C(CCCCNC(=O)CCCCCNC(=O)[C@H](CCCNC(=N)N)NC(=O)[C@H](CCCNC(=N)N)NC(=O)[C@H](CCCNC(=N)N)NC(=O)[C@H](CCCNC(=N)N)NC(=O)[C@H](C)NC(=O)[C@H](Cc1ccccc1)NC(=O)[C@H](CCC(=O)O)NC(=O)[C@H](CCC(=O)O)NC(=O)[C@H](CC(=O)O)NC(=O)[C@H](CC(=O)O)NC(=O)[C@H](Cc1c[nH]cn1)NC(=O)[C@H](Cc1c[nH]c2ccccc12)NC(=O)[C@H](C)NC(=O)[C@@H](N)CCSC)NC(=O)CCCCCNC(=O)[C@H](CCCNC(=N)N)NC(=O)[C@H](CCCNC(=N)N)NC(=O)[C@H](CCCNC(=N)N)NC(=O)[C@H](CCCNC(=N)N)NC(=O)[C@H](C)NC(=O)[C@H](Cc1ccccc1)NC(=O)[C@H](CCC(=O)O)NC(=O)[C@H](CCC(=O)O)NC(=O)[C@H](CC(=O)O)NC(=O)[C@H](CC(=O)O)NC(=O)[C@H](Cc1c[nH]cn1)NC(=O)[C@H](Cc1c[nH]c2ccccc12)NC(=O)[C@H](C)NC(=O)[C@@H](N)CCSC)C(N)=O (stereo partly drawn) |  | C57BL/6 mouse female, skull | dose not given, 3 h | reference: total | tissue distribution | 17.4% and 16.5% and 17.2% |
| CC(C)N1CCCCC1C(=O)NC(Cc1ccc(-c2ccccc2)cc1)B(O)O (stereo not drawn) |  | SCID mouse, P. falciparum model, blood | oral, 25 mg/kg, 4 h |  | blood concentration | 18 ng/mL |
| CSCC[C@H](NC(=O)CNC(=O)[C@H](CCCCN)NC(=O)[C@H](CC(C)C)NC(=O)[C@@H]1CCCN1C(=O)[C@H](CO)NC(=O)[C@H](Cc1c[nH]cn1)NC(=O)[C@H](Cc1c[nH]c2ccccc12)NC(=O)[C@H](CCCNC(=N)N)NC(=O)[C@H](CC(C)C)NC(=O)[C@H](CCCNC(=N)N)NC(=O)[C@H](Cc1c[nH]c2ccccc12)NC(=O)[C@H](CS)NC(=O)CCCCCNC(=O)CN1CCN(CC(=O)O)CCN(CC(=O)O)CCN(CC(=O)O)CC1)C(=O)O [copper-64 labelled] | PET imaging | BALB/c nude mice, kidney | intravenous, dose not given, 9 h, Huh-7 tumour-bearing |  | tissue uptake | 9.35 ± 0.97 %ID/g |
| O=C1NC2(CC2)COc2ncc(F)cc2[C@H]2COCCN2c2ccn3ncc1c3n2 |  | Sprague-Dawley rat, male, serum | oral, 5 mg/kg/day, end of treatment, 4-week subacute toxicity |  | serum total protein | 57.2 ± 2.4 g/L |
| CC1(C)C(=O)N(c2ccc(C#N)c(C(F)(F)F)c2)C(=S)N1c1ccc(C(=O)O)c(F)c1 |  | human, male, plasma | oral, 160 mg, single dose, fasting |  | MRT | 14.1 ± 2.24 days |
| CC(=O)NCCCC[C@@H]1NC(=O)[C@H](Cc2c[nH]c3c(C)cccc23)NC(=O)[C@H]([C@@H](C)O)NC(=O)[C@H](CC(N)=O)NC(=O)[C@@H](NC(C)=O)C(C)(C)SSC(C)(C)[C@@H](C(=O)N[C@@H](Cc2ccc(OCCN)cc2)C(=O)N[C@@H](Cc2ccc3ccccc3c2)C(=O)NC2(C(=O)N[C@@H](CCC(=O)O)C(=O)N[C@@H](CC(N)=O)C(=O)N[C@@H](Cc3cccnc3)C(=O)N(C)CC(N)=O)CCOCC2)NC1=O |  | rat, blood | 0.0013 µM, 2 h |  | blood to plasma ratio | 0.63 ± 0.09 |
